{"data": "Experimental data pooled from the literature", "Mapk1": "Mitogen-activated protein kinase 1 (Mapk1, Rattus norvegicus, UniProt P63086)", "note": "Each line is one published result; not all experiments were run side by side. ± gives the spread as reported.", "UniProt P63086, sequence (whole entry, looked up)": "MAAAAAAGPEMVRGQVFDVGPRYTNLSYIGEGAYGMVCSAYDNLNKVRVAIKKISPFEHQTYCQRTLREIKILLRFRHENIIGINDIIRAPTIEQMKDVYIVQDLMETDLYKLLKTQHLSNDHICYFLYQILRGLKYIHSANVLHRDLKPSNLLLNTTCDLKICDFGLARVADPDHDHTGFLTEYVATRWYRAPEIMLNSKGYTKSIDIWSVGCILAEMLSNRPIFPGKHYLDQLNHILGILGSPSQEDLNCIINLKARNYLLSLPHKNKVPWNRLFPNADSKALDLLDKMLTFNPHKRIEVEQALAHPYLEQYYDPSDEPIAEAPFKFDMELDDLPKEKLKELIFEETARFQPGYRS", "UniProt P40306, sequence (whole entry, looked up)": "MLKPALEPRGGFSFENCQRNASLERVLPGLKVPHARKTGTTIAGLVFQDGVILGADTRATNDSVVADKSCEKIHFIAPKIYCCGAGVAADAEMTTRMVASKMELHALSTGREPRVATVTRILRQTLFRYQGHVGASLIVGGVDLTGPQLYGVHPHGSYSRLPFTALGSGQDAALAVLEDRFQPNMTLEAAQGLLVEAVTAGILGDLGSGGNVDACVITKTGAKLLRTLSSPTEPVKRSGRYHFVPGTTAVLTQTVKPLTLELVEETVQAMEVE", "UniProt P42338, sequence (whole entry, unmodified, looked up)": "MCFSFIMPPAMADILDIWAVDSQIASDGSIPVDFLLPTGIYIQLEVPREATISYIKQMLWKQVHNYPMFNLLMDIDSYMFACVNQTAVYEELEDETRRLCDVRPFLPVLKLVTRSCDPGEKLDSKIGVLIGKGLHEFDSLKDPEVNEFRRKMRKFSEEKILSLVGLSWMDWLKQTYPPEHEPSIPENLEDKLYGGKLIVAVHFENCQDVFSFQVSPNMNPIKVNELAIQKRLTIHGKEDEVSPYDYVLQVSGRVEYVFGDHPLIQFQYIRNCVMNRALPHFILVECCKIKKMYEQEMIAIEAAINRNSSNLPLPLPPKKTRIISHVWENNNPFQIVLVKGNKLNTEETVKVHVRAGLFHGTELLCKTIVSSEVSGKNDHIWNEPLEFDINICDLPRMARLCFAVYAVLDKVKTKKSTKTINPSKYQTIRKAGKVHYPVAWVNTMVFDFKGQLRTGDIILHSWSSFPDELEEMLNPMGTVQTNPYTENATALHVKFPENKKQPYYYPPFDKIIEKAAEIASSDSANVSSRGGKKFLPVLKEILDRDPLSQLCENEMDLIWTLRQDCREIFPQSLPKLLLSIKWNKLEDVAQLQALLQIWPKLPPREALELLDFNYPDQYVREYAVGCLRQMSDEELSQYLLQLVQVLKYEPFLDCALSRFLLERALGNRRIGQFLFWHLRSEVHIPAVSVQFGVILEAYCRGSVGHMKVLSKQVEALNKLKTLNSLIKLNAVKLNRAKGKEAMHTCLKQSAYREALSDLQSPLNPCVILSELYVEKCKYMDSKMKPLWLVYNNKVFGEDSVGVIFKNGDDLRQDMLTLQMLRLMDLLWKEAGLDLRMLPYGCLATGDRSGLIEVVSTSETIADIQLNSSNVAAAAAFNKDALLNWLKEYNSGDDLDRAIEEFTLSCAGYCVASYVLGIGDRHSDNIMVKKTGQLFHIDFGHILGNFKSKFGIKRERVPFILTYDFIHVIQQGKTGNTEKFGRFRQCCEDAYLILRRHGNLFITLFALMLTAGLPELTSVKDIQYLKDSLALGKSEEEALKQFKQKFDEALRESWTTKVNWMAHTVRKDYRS", "UniProt Q08210, sequence (whole entry, looked up)": "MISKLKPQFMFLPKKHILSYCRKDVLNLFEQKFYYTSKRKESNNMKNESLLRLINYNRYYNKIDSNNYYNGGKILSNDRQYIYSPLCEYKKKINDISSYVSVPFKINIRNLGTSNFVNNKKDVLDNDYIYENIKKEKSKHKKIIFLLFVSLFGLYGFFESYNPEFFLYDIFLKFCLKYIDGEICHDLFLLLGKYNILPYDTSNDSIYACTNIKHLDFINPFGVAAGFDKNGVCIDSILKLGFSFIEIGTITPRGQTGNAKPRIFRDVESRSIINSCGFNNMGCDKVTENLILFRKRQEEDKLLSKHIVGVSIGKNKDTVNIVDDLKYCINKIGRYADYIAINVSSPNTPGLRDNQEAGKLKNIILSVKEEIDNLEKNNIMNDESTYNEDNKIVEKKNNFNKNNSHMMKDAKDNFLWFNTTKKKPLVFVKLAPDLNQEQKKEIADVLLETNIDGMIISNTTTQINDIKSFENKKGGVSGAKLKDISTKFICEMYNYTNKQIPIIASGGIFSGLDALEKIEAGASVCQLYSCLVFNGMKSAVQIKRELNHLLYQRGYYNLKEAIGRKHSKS", "UniProt P08172, sequence (whole entry, looked up)": "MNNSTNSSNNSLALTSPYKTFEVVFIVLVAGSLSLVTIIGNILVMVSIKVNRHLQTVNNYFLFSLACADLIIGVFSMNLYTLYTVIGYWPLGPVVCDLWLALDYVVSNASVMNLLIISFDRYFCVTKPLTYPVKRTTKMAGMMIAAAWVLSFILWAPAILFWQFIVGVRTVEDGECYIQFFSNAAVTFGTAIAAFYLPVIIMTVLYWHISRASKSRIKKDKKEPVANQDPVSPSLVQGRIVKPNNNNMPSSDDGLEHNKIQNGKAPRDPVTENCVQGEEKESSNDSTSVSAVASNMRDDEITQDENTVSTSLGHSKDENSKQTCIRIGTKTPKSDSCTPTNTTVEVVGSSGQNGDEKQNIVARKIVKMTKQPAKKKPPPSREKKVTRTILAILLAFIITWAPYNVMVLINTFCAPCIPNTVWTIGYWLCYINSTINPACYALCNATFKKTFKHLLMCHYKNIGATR", "UniProt Q96FL8, sequence (whole entry, looked up)": "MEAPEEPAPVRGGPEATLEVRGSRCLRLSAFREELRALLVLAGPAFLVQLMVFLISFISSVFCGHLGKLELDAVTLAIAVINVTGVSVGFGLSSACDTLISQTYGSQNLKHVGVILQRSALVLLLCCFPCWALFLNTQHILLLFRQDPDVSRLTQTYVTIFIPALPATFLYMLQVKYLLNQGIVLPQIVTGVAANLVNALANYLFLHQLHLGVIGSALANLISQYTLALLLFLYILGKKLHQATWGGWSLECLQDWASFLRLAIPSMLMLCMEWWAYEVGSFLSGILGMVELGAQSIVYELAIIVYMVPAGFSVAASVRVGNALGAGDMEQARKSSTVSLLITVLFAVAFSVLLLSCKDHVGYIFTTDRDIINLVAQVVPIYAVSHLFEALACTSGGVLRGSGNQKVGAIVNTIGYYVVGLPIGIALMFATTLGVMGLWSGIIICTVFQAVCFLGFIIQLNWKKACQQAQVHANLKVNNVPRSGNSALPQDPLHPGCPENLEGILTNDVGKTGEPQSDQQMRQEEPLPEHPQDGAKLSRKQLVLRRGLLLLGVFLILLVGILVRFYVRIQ", "UniProt Q08345, sequence (whole entry, looked up)": "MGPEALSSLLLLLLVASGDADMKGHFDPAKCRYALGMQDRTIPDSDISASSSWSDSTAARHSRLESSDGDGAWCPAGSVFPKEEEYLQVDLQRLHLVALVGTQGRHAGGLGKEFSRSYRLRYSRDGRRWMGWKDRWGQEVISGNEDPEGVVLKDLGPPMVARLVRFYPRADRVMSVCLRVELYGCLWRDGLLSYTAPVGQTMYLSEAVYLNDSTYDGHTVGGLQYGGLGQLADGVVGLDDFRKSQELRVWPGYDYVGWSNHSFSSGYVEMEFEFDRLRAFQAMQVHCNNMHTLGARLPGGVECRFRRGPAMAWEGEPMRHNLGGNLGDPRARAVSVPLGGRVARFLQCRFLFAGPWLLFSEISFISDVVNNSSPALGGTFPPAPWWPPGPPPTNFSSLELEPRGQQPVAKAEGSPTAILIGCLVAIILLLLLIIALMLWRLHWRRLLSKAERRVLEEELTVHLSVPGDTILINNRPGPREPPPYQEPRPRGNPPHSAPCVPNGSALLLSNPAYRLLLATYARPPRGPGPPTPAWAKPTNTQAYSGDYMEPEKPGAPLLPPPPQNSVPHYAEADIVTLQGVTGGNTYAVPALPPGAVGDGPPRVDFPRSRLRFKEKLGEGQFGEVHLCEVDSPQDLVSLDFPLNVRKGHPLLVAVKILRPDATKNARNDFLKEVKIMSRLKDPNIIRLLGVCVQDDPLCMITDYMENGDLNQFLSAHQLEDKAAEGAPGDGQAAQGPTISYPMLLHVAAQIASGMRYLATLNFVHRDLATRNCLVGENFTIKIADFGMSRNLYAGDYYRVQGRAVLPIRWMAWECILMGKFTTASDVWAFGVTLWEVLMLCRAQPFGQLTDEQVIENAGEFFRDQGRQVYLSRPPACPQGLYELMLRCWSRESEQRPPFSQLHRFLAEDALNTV", "UniProt P07384, sequence (whole entry, looked up)": "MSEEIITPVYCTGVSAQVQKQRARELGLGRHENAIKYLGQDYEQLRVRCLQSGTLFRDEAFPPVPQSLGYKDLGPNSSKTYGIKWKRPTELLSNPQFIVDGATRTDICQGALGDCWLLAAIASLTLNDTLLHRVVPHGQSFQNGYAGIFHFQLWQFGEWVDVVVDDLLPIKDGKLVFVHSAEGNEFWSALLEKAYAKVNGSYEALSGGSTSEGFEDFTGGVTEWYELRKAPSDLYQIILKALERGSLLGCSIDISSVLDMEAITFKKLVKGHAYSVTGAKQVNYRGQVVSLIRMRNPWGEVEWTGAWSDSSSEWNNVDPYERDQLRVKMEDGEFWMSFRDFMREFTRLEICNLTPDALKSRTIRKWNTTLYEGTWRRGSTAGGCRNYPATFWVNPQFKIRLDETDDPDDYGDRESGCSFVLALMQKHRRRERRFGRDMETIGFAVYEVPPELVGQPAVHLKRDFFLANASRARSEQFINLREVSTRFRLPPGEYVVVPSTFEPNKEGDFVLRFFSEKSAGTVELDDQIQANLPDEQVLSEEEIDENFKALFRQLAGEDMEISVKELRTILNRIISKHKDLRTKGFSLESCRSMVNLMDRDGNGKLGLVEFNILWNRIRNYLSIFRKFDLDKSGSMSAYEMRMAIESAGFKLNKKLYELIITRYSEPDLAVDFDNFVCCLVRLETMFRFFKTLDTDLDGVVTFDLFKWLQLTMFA"}
{"Compound": "Cc1cc(-c2ccc3ccccc3c2)nnc1NCCN1CCN(C)CC1", "target or system": "Multidrug and toxin extrusion protein 1 (SLC47A1, Homo sapiens, UniProt Q96FL8)", "test": "transport, inhibitor", "quantity": "IC50", "result": "0.23 µM"}
{"Compound": "CC(C)(C)C(=O)OCOP(=O)(OCOC(=O)C(C)(C)C)C1CCCN(O)C1=O (stereo not shown)", "target or system": "CCRF-CEM", "test": "cell growth", "quantity": "TGI", "result": "2.3 µM"}
{"Compound": "CC(C)C[C@H](NC(=O)[C@H](CCCCN)NC(=O)[C@H](CCCCN)NC(=O)[C@H](CCCCN)NC(=O)[C@H](CCCCN)NC(=O)[C@@H]1CCCN1C(=O)[C@H](CCCNC(=N)N)NC(=O)[C@H](Cc1ccccc1)NC(=O)[C@H](CCCCN)NC(=O)[C@H](CCCCN)NC(=O)[C@H](C)NC(=O)[C@@H](N)Cc1ccc(O)cc1)C(=O)N[C@@H](CCCNC(=N)N)C(=O)N[C@@H](CC(C)C)C(=O)N[C@@H](CC(N)=O)C(=O)N1CCC[C@H]1C(=O)O", "target or system": "Mapk1", "test": "enzyme activity, inhibitor, fluorescence", "conditions": "pH 7.4", "quantity": "IC50", "result": "19.6 µM"}
{"Compound": "CN1CCCCC1C(=O)NC(Cc1ccc(-c2ccccc2)cc1)B(O)O (stereo not shown)", "target or system": "Proteasome subunit beta type-10 / Proteasome subunit beta type-3 (Homo sapiens, UniProt P40306+P49720)", "test": "β2i activity, inhibitor", "conditions": "immunoproteasome, added: Ac-KQL-AMC", "quantity": "IC50", "result": "> 10 µM"}
{"Compound": "C[C@@H]1COCCN1c1nc(NCc2cccnc2C(F)(F)F)c2cccnc2n1", "target or system": "human NMDA receptor", "conditions": "agonist mode", "quantity": "IC50", "result": "> 100 µM"}
{"Compound": "O=C(O)CCn1c(=O)oc2cc(Cl)c(Cl)cc21", "target or system": "Muscarinic acetylcholine receptor M2 (CHRM2, Homo sapiens, UniProt P08172)", "test": "antagonist", "conditions": "median value", "quantity": "IC50", "result": "> 50.1 µM"}
{"Compound": "CC[C@H](C)[C@H](NC(=O)[C@@H](NC(=O)[C@H](CCC(=O)O)NC(=O)[C@H](CCSC)NC(=O)[C@H](CCC(N)=O)NC(=O)[C@H](CCCNC(=N)N)NC(=O)[C@H](CCCNC(=N)N)NC(=O)[C@H](CC(N)=O)NC(=O)[C@H](CCCNC(=N)N)NC(=O)[C@H](CC(C)C)NC(=O)[C@H](C)NC(=O)[C@@H](N)Cc1ccc(O)cc1)C(C)C)C(=O)N[C@@H](CO)C(=O)N[C@@H](CC(C)C)C(=O)N[C@@H](CCCNC(=N)N)C(=O)N[C@@H](CC(C)C)C(=O)O", "target or system": "Mapk1", "test": "enzyme activity, inhibitor, fluorescence", "conditions": "pH 7.4", "quantity": "IC50", "result": "41.4 µM"}
{"Compound": "CN(C)[C@H]1C[C@@]23CC[C@@]4(O2)C(=CC[C@]2(C)[C@@H](c5ccc6ccncc6c5)CC[C@H]24)C=C3[C@@H](O)[C@@H]1O", "target or system": "Tyrosine-protein kinase SYK (SYK, Homo sapiens, UniProt P43405)", "test": "ATP probe labelling, inhibitor, KiNativ profiling", "conditions": "0.1 µM", "quantity": "inhibition", "result": "8.3%"}
{"Compound": "CCN(N=Cc1cnc2ccc(Br)cn12)S(=O)(=O)c1cc([N+](=O)[O-])ccc1C", "target or system": "Phosphatidylinositol 4,5-bisphosphate 3-kinase catalytic subunit beta isoform (PIK3CB, Homo sapiens, UniProt P42338, Y778I)", "test": "enzyme activity, inhibitor", "quantity": "IC50", "result": "2 µM"}
{"Compound": "CC(C)C[C@H](NC(=O)[C@H](CCCCN)NC(=O)[C@H](CC(C)C)NC(=O)[C@H](CCCCN)NC(=O)[C@H](CCCNC(=N)N)NC(=O)[C@@H]1CCCN1C(=O)[C@H](CCCNC(=N)N)NC(=O)CNC(=O)[C@H](CCCNC(=N)N)NC(=O)[C@H](CCCCN)NC(=O)CNC(=O)[C@@H]1CCCN1C(=O)[C@H](C)NC(=O)[C@@H](N)Cc1ccc(O)cc1)C(=O)N[C@@H](CS)C(=O)N[C@@H](CCCCN)C(=O)O", "target or system": "Mapk1", "test": "enzyme activity, inhibitor, fluorescence", "conditions": "pH 7.4", "quantity": "IC50", "result": "6.11 µM"}
{"Compound": "O=C(CN1C(=O)C2(CCN(C(=O)c3cnc4[nH]ncc4c3)CC2)c2cccc(F)c21)NCC(F)(F)F", "target or system": "Epithelial discoidin domain-containing receptor 1 (DDR1, Homo sapiens, UniProt Q08345)", "test": "ligand displacement", "quantity": "IC50", "result": "15.2 µM"}
{"Compound": "COc1ccccc1-c1n[nH]c2nc(N[C@H]3CC[C@H](NS(=O)(=O)CC(C)C)CC3)ncc12", "test": "bead binding, competition bead pull-down, measured: LINJ.06.0030", "test system": "Leishmania donovani extract", "conditions": "10 µM", "how to read": "relative to: vehicle", "quantity": "relative abundance", "result": 0.93}
{"Compound": "O=C1NC2(CC2)COc2ncc(F)cc2[C@H]2COCCN2c2ccn3ncc1c3n2", "test system": "Sprague-Dawley rat, male, plasma", "conditions": "oral, 20 mg/kg/day, end of recovery, 4-week repeated-dose toxicity", "quantity": "prothrombin time", "result": "9.1 ± 0.1 s"}
{"Compound": "COc1ccccc1-c1n[nH]c2nc(NC3CCN(C(=O)Cc4ccc(F)cc4F)CC3)ncc12", "test": "bead binding, competition bead pull-down, measured: LINJ.32.0800", "test system": "Leishmania donovani axenic amastigote extract", "conditions": "10 µM", "how to read": "relative to: vehicle", "quantity": "relative abundance", "result": 0.11}
{"Compound": "Cc1cc(Cl)ccc1OC(C)C(=O)N1CCc2ccccc21 (stereo not shown)", "target or system": "Dihydroorotate dehydrogenase (quinone), mitochondrial (PFF0160c, Plasmodium falciparum, UniProt Q08210)", "test": "enzyme activity, inhibitor, absorbance", "quantity": "IC50", "result": "0.903 µM"}
{"Compound": "CC(C)C[C@H](NC(=O)[C@H]1O[C@@H]1C(=O)O)C(=O)NCCCCN=C(N)N", "target or system": "Calpain-1 catalytic subunit (CAPN1, Homo sapiens, UniProt P07384)", "test": "enzyme activity, inhibitor", "quantity": "IC50", "result": "0.0516 µM"}
{"note": "A few entries again:"}
{"Compound": "C[C@@H]1COCCN1c1nc(NCc2cccnc2C(F)(F)F)c2cccnc2n1", "target or system": "human NMDA receptor", "conditions": "agonist mode", "quantity": "IC50", "result": "> 100 µM"}
{"Compound": "O=C(O)CCn1c(=O)oc2cc(Cl)c(Cl)cc21", "target or system": "Muscarinic acetylcholine receptor M2 (CHRM2, Homo sapiens, UniProt P08172)", "test": "antagonist", "conditions": "median value", "quantity": "IC50", "result": "> 50.1 µM"}
